Measured values pooled from the literature.
Each line is one published result; not all experiments were run side by side. ± marks the error that the study gave.

SMILES | test | test system | conditions | endpoint | value
O=c1[nH]c(Cc2ccccn2)nc2c1cnn2C1CCOCC1 | – | male human, plasma | oral, 5 mg, single dose | AUC(0-inf) | 0.0767 µM·h
CN[C@@](C)(C[18F])C(=O)O | – | SCID mouse DU-145 xenograft, brain | 15 min, post injection | tissue uptake | 0.4 ± 0.2 %ID/g
Cc1cc(C(C#N)c2ccc(Cl)cc2)c(Cl)cc1NC(=O)c1cc(I)cc(I)c1O (stereo not drawn) | – | parasitized lambs, plasma | subcutaneous, 5 mg/kg, added: moxidectin 0.2 mg/kg subcutaneous | AUC(0-inf) | 68100 ± 19700 µg·h/mL
COc1ccc(C[C@@H]2NC(=O)[C@H]([C@@H](C)O)NC(=O)[C@@H]3[C@@H]4CCN3C(=O)[C@@H]3Cc5cn(c6ccc(F)cc56)CCCCCCN(Cc5ccc(cc5)CCNC(=O)[C@]5(C)CCCN5C2=O)C(=O)CCC(=O)N[C@@H](C)C(=O)N[C@H](CNC(=O)CCCCC[N+](C)(C)C)C(=O)N[C@@H](Cc2cccc(c2)CNC(=O)CO4)C(=O)N3)cc1 | – | fasted healthy humans, plasma | oral, 10 mg single dose, with 1800 mg Labrasol, geometric mean | AUC(0-inf) | 0.259 µM·h
C[C@H]1O[C@@H](O[C@H]2[C@@H](O)C[C@H](O[C@H]3[C@@H](O)C[C@H](O[C@H]4CC[C@@]5(C)[C@H](CC[C@@H]6[C@@H]5C[C@@H](O)[C@]5(C)[C@@H](C7=CC(=O)OC7)CC[C@]65O)C4)O[C@@H]3C)O[C@@H]2C)C[C@H](O)[C@@H]1O | – | healthy volunteers, plasma | dose not given, added: 2D regimen | AUC(0-inf) | 0.0375 µg·h/mL
c1cc([C@H]2CC[C@]3(CC2)OO[C@]2(O3)C3CC4CC(C3)CC2C4)ccc1OCCN1CCOCC1 | – | human, plasma | oral, 800 mg, single dose, fasted | AUC(0-inf) | 8.08 µg·h/mL
CC[C@@]1(O)C(=O)OCc2c1cc1n(c2=O)Cc2cc3c(CN(C)C)c(O)ccc3nc2-1 | – | human, plasma | oral, 8 mg, patients | AUC(0-inf) | 0.157 µg·h/mL
O[C@H]1CCCN[C@@H]1CCCn1cnc2c(Cl)c(Cl)ccc21 | – | human, plasma | oral, 100 mg single dose, capsule, geometric mean | AUC(0-inf) | 0.639 µg·h/mL
CC[C@H](C)[C@H](NC(=O)[C@H](CC(C)C)NC(=O)[C@H](Cc1c[nH]c2ccccc12)NC(=O)[C@H](CCC(N)=O)NC(=O)[C@@H](NC(=O)[C@H](Cc1ccccc1)NC(=O)[C@H](C)NC(=O)[C@H](CCCCNC(=O)COCCOCCNC(=O)COCCOCCNC(=O)CC[C@H](NC(=O)CCCCCCCCCCCCCCCCCCC(=O)O)C(=O)O)NC(=O)[C@H](CCC(N)=O)NC(=O)[C@H](C)NC(=O)[C@@H](NC(=O)[C@H](CCCCN)NC(=O)[C@H](CC(=O)O)NC(=O)[C@H](CC(C)C)NC(=O)C(C)(C)NC(=O)[C@@H](NC(=O)[C@H](CO)NC(=O)[C@H](Cc1ccc(O)cc1)NC(=O)[C@H](CC(=O)O)NC(=O)[C@H](CO)NC(=O)[C@@H](NC(=O)[C@H](Cc1ccccc1)NC(=O)[C@@H](NC(=O)CNC(=O)[C@H](CCC(=O)O)NC(=O)C(C)(C)NC(=O)[C@@H](N)Cc1ccc(O)cc1)[C@@H](C)O)[C@@H](C)O)[C@@H](C)CC)[C@@H](C)CC)C(C)C)C(=O)N[C@@H](C)C(=O)NCC(=O)NCC(=O)N1CCC[C@H]1C(=O)N[C@@H](CO)C(=O)N[C@@H](CO)C(=O)NCC(=O)N[C@@H](C)C(=O)N1CCC[C@H]1C(=O)N1CCC[C@H]1C(=O)N1CCC[C@H]1C(=O)N[C@@H](CO)C(N)=O | – | human, normal hepatic function, plasma | subcutaneous, 5 mg single dose, geometric mean | AUC(0-inf) | 84.3 µg·h/mL
CN(C)CCC[C@@]1(c2ccc(F)cc2)OCc2cc(C#N)ccc21 | – | healthy volunteers, plasma | dose not given, added: 2D regimen | AUC(0-inf) | 0.209 µg·h/mL
Oc1ccc2ccc3c4ccccc4cc4ccc1c2c43 | UPLC-AMS | human, plasma | oral, 100 ng of [14C]-BaP | AUC(0-inf) | 30.7 ± 19.6 fg BaP equivalents·h/mL
CC(C)[C@H]1C(=O)N[C@@H](CCCN=C(N)N)C(=O)NCC(=O)N[C@@H](CC(=O)O)C(=O)N[C@H](Cc2ccccc2)C(=O)N1C | – | female NMRI mice, plasma | intravenous bolus, 2.5 mg/kg | AUC(0-inf) | 0.781 µg·h/mL

Excerpt of the above:
SMILES | test | test system | conditions | endpoint | value
Cc1cc(C(C#N)c2ccc(Cl)cc2)c(Cl)cc1NC(=O)c1cc(I)cc(I)c1O (stereo not drawn) | – | parasitized lambs, plasma | subcutaneous, 5 mg/kg, added: moxidectin 0.2 mg/kg subcutaneous | AUC(0-inf) | 68100 ± 19700 µg·h/mL
COc1ccc(C[C@@H]2NC(=O)[C@H]([C@@H](C)O)NC(=O)[C@@H]3[C@@H]4CCN3C(=O)[C@@H]3Cc5cn(c6ccc(F)cc56)CCCCCCN(Cc5ccc(cc5)CCNC(=O)[C@]5(C)CCCN5C2=O)C(=O)CCC(=O)N[C@@H](C)C(=O)N[C@H](CNC(=O)CCCCC[N+](C)(C)C)C(=O)N[C@@H](Cc2cccc(c2)CNC(=O)CO4)C(=O)N3)cc1 | – | fasted healthy humans, plasma | oral, 10 mg single dose, with 1800 mg Labrasol, geometric mean | AUC(0-inf) | 0.259 µM·h
